Measured values from different studies.
Compare with care: the assays were run in different laboratories. ± gives the spread as reported.
Organism: Influenza A virus

CCOC(=O)C1=C[C@@H](OC(CC)CC)[C@H](NC(C)=O)[C@@H](N)C1
lung virus titre (A/WSN/33 H1N1, mouse, lung; dose not given, 24 h): 5.15 log10 TCID50/mL

COC(=O)OCOc1c2n(ccc1=O)N([C@@H]1c3ccccc3SCc3c1ccc(F)c3F)[C@@H]1COCCN1C2=O
EC50 (viral replication): 0.00304 µM

CCOC(=O)C1=C[C@@H](OC(CC)CC)[C@H](NC(C)=O)[C@@H](N)C1
neutralizing antibody titre (A/NWS/33 (H1N1), BALB/c mouse, bronchoalveolar lavage fluid and serum; oral, 0.2 mg/mouse/day, day 14; reference: untreated infected control): decreased

CC(=O)N[C@H]1[C@H]([C@H](O)[C@H](O)CO)OC(C(=O)O)=C[C@@H]1O
EC50 (viral replication; A/Paris/0497/2007 (H1N1); 72 h): 20 µM

NC(=O)c1ncn([C@@H]2O[C@H](CO)[C@@H](O)[C@H]2O)n1
IC50 (viral replication; MDCK, A/Fort Monmouth/1/1947 (H1N1)): 2.06 mg/L

NC12CC3CC(CC(C3)C1)C2
EC50 (viral replication, visual CPE score; MDCK, H1N1): 89 µM

COc1ccc2cc1Oc1ccc(cc1)C[C@H]1c3cc(c(OC)cc3CCN1C)Oc1c(OC)c(OC)cc3c1[C@@H](C2)N(C)CC3
IC50 (viral replication; MDCK, A/Fort Monmouth/1/1947 (H1N1); 48 h): 5.37 ± 0.94 µM

NC(=O)c1ncn([C@@H]2O[C@H](CO)[C@@H](O)[C@H]2O)n1
EC50 (cytopathic effect, neutral red; MDCK, A/California/07/2009 (H1N1)pdm09): 7.3 mg/L

COc1ccc2cc1Oc1ccc(cc1)C[C@H]1c3c(cc4c(c3Oc3cc5c(cc3OC)CCN(C)[C@@H]5C2)OCO4)CCN1C
IC50 (viral replication; MDCK, A/Fort Monmouth/1/1947 (H1N1); 48 h): 3.1 ± 0.72 µM

CCOC(=O)C1=C[C@@H](OC(CC)CC)[C@H](NC(C)=O)[C@@H](N)C1
IC50 (viral replication; MDCK, A/Fort Monmouth/1/1947 (H1N1)): 2.01 mg/L

COc1ccc2cc1Oc1ccc(cc1)C[C@H]1c3cc(c(OC)cc3CCN1C)Oc1c(O)c(OC)cc3c1[C@H](C2)N(C)CC3
IC50 (viral replication; MDCK, A/Fort Monmouth/1/1947 (H1N1); 48 h): 4.96 ± 1.27 µM

COC(=O)N[C@H](C(=O)N1CCC[C@H]1c1ncc(-c2ccc(-c3ccc(-c4cnc([C@@H]5CCCN5C(=O)[C@@H](NC(=O)OC)C(C)C)[nH]4)cc3)cc2)[nH]1)C(C)C
EC50 (viral replication; MDBK): > 36 µM
